Measured values of several laboratories.
Parts stem from different laboratories: compare values within a part only. Values joined by “and” are separate records of one study, mostly repeats; a detail may differ.
Sequence of UniProt P49840 (whole entry, looked up): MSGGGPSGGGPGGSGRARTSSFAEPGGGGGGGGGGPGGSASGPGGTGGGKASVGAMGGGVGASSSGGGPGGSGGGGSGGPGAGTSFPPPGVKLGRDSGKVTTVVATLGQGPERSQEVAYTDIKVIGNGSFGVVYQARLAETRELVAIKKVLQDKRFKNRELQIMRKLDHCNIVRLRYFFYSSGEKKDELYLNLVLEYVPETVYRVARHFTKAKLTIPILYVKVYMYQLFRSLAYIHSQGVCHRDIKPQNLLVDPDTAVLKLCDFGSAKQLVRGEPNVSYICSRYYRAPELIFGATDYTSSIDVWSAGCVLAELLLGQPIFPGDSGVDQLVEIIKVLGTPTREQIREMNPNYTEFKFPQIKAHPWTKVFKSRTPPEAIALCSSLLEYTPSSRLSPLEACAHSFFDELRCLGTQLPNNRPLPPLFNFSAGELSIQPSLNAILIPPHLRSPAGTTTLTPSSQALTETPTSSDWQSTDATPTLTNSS
Sequence of UniProt P48736 (whole entry, looked up): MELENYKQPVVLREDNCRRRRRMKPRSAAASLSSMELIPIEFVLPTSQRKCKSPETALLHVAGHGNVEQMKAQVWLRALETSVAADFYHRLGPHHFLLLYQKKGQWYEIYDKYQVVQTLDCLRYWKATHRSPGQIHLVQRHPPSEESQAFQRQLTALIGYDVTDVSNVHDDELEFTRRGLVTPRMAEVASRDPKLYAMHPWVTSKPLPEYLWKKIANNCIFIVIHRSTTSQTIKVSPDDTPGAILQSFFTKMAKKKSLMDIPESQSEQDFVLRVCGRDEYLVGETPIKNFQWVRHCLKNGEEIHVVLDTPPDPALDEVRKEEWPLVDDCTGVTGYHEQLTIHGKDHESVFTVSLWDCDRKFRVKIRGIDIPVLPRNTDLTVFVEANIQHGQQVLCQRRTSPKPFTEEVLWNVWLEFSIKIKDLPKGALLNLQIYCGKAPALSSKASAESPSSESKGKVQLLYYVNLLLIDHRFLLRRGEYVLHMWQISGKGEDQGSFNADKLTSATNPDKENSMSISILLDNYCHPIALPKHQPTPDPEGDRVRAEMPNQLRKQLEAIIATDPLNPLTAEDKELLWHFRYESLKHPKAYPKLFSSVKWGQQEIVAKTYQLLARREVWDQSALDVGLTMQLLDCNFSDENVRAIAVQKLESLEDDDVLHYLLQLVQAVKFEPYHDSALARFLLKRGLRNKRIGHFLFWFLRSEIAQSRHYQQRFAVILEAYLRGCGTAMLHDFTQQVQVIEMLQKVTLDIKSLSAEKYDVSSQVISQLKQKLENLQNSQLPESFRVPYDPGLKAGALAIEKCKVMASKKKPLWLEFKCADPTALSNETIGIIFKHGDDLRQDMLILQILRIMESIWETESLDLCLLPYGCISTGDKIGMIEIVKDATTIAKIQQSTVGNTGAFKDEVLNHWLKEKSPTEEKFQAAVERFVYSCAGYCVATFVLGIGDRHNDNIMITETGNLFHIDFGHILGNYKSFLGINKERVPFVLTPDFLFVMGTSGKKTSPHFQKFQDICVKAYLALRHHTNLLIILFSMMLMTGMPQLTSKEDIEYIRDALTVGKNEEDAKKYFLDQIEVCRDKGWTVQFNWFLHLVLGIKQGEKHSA
Sequence of UniProt Q00526 (whole entry, looked up): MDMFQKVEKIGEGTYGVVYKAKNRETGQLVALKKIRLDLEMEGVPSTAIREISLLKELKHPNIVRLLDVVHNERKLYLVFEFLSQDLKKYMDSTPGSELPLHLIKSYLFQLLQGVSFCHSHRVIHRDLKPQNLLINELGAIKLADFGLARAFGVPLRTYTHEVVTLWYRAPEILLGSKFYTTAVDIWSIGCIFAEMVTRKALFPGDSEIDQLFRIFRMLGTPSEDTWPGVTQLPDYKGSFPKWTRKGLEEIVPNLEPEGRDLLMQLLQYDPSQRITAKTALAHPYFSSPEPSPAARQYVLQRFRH

Study 1 — effect on: thermal unfolding; method: differential scanning fluorimetry; concentration: 5.5 µM; reading: higher = more unfolded; endpoint: SYPRO Orange fluorescence
Compound: C[C@@H]1CN(c2ccc(-c3cc(C(=O)NCCOCCOCCOCCOCCNC(=O)/C=C/c4[nH]cc(C(=O)N[C@@H](CC(N)=O)c5ccc(F)c(Cl)c5)c4-c4ccc(Cl)cc4F)ccc3F)cc2NC(=O)c2c[nH]c(=O)cc2C(F)(F)F)C[C@H](C)N1C
WDR5: WD repeat-containing protein 5 (WDR5, Homo sapiens, UniProt P61964)
DCAF1: DDB1- and CUL4-associated factor 1 (DCAF1, Homo sapiens, UniProt Q9Y4B6)
Sequence of UniProt Q9Y4B6 (whole entry, looked up): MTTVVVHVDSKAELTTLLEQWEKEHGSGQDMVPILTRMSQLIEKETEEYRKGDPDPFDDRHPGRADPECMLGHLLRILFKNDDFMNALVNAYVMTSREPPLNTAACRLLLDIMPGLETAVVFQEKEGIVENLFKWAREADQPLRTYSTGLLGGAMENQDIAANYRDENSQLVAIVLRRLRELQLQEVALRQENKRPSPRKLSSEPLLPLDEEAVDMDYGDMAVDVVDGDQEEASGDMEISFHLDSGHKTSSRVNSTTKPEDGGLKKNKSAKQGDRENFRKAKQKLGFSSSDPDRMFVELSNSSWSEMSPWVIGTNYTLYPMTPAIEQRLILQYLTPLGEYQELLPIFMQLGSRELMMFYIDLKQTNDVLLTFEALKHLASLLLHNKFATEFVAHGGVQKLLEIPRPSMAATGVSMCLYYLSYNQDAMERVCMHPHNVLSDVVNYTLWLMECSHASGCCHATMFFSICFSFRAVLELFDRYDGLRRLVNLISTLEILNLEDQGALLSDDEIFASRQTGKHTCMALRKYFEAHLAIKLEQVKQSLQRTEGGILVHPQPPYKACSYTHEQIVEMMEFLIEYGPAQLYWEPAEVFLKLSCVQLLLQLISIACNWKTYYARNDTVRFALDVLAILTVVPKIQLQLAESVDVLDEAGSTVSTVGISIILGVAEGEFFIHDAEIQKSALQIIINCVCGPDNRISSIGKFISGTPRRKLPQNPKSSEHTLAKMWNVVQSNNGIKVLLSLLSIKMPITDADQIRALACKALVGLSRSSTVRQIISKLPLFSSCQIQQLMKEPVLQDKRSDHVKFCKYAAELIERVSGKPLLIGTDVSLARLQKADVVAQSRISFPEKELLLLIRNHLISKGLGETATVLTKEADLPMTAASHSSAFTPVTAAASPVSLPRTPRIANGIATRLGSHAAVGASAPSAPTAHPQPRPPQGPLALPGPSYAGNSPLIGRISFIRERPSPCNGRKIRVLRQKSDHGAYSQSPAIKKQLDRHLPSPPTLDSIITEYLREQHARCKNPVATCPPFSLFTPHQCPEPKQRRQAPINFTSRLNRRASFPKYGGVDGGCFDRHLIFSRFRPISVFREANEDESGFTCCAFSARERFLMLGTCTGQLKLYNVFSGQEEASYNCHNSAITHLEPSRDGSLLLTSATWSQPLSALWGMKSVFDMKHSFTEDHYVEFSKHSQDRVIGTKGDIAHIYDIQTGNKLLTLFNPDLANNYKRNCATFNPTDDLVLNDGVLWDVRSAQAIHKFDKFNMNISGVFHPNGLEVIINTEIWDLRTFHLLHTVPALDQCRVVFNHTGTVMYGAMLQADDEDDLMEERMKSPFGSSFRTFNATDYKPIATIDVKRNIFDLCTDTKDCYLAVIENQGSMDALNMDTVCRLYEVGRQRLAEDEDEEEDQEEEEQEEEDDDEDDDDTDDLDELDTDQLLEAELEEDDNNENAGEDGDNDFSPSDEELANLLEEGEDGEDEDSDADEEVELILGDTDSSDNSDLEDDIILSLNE
WDR5; 93.81 °C: 46600 a.u.
DCAF1; 83.21 °C: 42100 a.u.
DCAF1; 54.21 °C: 19900 a.u.
DCAF1; 77.61 °C: 47500 a.u.
WDR5; 48.4 °C: 15900 a.u.
DCAF1; 87.81 °C: 37200 a.u.
WDR5; 33.8 °C: 13100 a.u.
WDR5; 67.21 °C: 14000 a.u.
DCAF1; 48.8 °C: 14600 a.u.
DCAF1; 80.01 °C: 45200 a.u.
WDR5; 74.21 °C: 23900 a.u.

Study 2 — effect on: kinase activity; endpoint: inhibition
SMILES: CN(C1COC1)C(C)(C)/C=C(\C#N)C(=O)N1CCC[C@H]1Cn1nc(-c2ccc(Oc3ccccc3)cc2F)c2c(N)ncnc21
NTRK2 (Homo sapiens, UniProt Q16620); 1 µM: -1%
Cyclin-dependent kinase 3, with cyclin E (CDK3, Homo sapiens, UniProt Q00526); 1 µM: -8%
TTK (Homo sapiens, UniProt P33981); 0.1 µM: -5%
KDR (Homo sapiens, UniProt P35968); 0.1 µM: -1%
AKT1 (Homo sapiens, UniProt P31749); 1 µM: 0%
DYRK2 (Homo sapiens, UniProt Q92630); 0.1 µM: -6%
KIT (Homo sapiens, UniProt P10721); 0.1 µM: -9%
DYRK3 (Homo sapiens, UniProt O43781); 1 µM: 1%
MINK1 (Homo sapiens, UniProt Q8N4C8); 1 µM: -4%
CAMK2G (Homo sapiens, UniProt Q13555); 1 µM: 0%
ITK (Homo sapiens, UniProt Q08881); 1 µM: 5%
PIK3CG (Homo sapiens, UniProt P48736); 1 µM: -8%
GSK3A (Homo sapiens, UniProt P49840); 0.1 µM: -1%
HIPK1 (Homo sapiens, UniProt Q86Z02); 0.1 µM: 2%

Study 3 — effect on: kinase activity; mode: inhibitor; method: ADP-Glo; concentration: 0.2222 µM; endpoint: inhibition
Target: Cyclin-dependent kinase 12, with cyclin K (CDK12, Homo sapiens, UniProt Q9NYV4)
Sequence of UniProt Q9NYV4 (whole entry, looked up): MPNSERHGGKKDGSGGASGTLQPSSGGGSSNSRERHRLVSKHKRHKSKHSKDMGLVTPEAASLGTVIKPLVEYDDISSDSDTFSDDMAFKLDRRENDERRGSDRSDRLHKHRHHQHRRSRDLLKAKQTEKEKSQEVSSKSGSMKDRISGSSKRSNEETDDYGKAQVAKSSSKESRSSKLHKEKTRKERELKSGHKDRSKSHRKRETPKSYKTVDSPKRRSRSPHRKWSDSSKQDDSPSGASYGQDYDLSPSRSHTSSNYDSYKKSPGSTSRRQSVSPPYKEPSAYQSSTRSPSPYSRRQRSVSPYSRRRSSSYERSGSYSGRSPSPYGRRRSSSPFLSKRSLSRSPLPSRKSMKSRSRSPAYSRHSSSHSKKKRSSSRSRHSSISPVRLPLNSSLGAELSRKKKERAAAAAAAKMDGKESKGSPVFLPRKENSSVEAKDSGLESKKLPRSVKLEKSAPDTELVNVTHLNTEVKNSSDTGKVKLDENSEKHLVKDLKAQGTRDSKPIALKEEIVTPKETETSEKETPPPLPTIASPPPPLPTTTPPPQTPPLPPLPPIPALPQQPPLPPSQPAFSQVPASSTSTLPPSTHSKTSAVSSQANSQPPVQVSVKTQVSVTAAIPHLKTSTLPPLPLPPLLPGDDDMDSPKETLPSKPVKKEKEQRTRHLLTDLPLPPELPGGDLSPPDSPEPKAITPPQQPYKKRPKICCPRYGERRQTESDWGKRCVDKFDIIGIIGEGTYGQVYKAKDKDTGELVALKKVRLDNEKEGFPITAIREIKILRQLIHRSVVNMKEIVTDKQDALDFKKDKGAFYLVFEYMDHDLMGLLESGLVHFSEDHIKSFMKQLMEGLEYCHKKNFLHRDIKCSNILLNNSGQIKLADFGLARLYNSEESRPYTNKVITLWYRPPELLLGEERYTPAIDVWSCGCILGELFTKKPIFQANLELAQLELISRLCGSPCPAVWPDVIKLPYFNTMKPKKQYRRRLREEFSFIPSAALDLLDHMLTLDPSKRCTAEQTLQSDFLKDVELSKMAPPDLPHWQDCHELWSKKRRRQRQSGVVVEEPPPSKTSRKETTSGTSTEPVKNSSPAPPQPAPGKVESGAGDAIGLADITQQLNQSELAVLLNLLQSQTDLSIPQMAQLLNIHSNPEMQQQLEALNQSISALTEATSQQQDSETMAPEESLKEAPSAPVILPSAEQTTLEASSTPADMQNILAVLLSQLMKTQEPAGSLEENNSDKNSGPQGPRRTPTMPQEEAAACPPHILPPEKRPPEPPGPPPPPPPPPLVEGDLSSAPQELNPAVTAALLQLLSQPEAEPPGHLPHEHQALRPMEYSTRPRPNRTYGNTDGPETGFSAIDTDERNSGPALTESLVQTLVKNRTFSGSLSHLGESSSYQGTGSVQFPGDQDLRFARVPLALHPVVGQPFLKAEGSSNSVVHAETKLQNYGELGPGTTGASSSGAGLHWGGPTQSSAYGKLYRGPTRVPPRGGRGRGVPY
CCn1cnc2c(NCc3nc4cc(F)c(F)cc4[nH]3)nc(N3CCn4ncnc4C3)nc21: 48.8%
CCn1cnc2c(NCc3nc4cc(Cl)c(Cl)cc4[nH]3)nc(N3CCN(C(C)=O)CC3)nc21: 63.7%
CCn1cnc2c(NCc3nc4cc(Cl)c(Cl)cc4[nH]3)nc(N3CCN(C(=O)c4ccccc4)CC3)nc21: 70.7%
CCn1cnc2c(NCc3nc4cc(Cl)c(Cl)cc4[nH]3)nc(N3CCN(Cc4ccncc4)CC3)nc21: 25.9%
CC(=O)N1CCN(c2nc(NCc3nc4cc(Cl)c(Cl)cc4[nH]3)c3ncn(C(C)C)c3n2)CC1: -1.8%
CCn1cnc2c(NCc3nc4cc(Cl)c(Cl)cc4[nH]3)nc(N3CCN(S(C)(=O)=O)CC3)nc21: 60.2%
CCn1cnc2c(NCc3nc4cc(Cl)c(Cl)cc4[nH]3)nc(N3CCN(C(=O)c4ccncc4)CC3)nc21: 74.2%
CCn1cnc2c(NCc3nc4cc(Cl)c(Cl)cc4[nH]3)nc(N3CCN(C(=O)CNC(C)=O)CC3)nc21: 70.3%
CCn1cnc2c(NCc3nc4cc(Cl)c(Cl)cc4[nH]3)nc(N3CCN(C(=O)c4ccccn4)CC3)nc21: 56.4%
CC(=O)N1CCN(c2nc(NCc3nc4cc(Cl)c(Cl)cc4[nH]3)c3ncn(C)c3n2)CC1: 24.8%

Study 4 — effect on: binding; method: HTRF; concentration: 12.35 nM; endpoint: inhibition
Target: Membrane-associated tyrosine- and threonine-specific cdc2-inhibitory kinase (PKMYT1, Homo sapiens, UniProt Q99640)
Residues (Q99640 1-499): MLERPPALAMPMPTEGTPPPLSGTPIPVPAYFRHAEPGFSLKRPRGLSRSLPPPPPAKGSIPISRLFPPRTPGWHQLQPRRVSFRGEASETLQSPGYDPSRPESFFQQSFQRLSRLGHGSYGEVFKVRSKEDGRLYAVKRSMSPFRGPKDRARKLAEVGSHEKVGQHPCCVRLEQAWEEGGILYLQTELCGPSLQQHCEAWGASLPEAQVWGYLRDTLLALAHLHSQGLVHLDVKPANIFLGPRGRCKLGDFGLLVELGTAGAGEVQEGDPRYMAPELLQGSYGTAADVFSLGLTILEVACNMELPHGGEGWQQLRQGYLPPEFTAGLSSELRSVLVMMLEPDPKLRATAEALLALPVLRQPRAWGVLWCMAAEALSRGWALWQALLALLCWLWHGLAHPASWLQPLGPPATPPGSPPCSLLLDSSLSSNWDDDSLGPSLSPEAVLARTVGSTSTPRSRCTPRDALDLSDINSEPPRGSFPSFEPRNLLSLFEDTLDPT
Cc1ccc(O)c(C)c1-c1cnc2[nH]c(-c3cnc(N4CCC(CN5CCN(c6c(F)cc(NC7CCC(=O)NC7=O)cc6F)CC5)CC4)nc3)cc2c1C#N (racemic): 46.4% and 44.2%
Cc1ccc(O)c(C)c1-c1cnc2[nH]c(-c3cnc(N4CCC(CCN5CCN(c6ccc(N7CCC(=O)NC7=O)cc6F)CC5)CC4)nc3)cc2c1C#N: 94% and 94.3%
Cc1ccc(O)c(C)c1-c1cnc2[nH]c(-c3cnc(N4CCC5(CC4)CC(N4CCN(c6cc7c(cc6F)c(N6CCC(=O)NC6=O)nn7C)CC4)CO5)nc3)cc2c1C#N (racemic): 75.5% and 79.4%
Cc1ccc(O)c(C)c1-c1cnc2[nH]c(-c3cnc(N4CCC(CCN5CCN(c6ccc7c(c6)C(=O)N(C6CCC(=O)NC6=O)C7=O)CC5)CC4)nc3)cc2c1C#N (racemic): 78.4% and 77.5%
Cc1ccc(O)c(C)c1-c1cnc2[nH]c(-c3cnc(N4CCC(CN5CCN(c6ccc(NC7CCC(=O)NC7=O)c(F)c6)CC5)CC4)nc3)cc2c1C#N (racemic): 81.4% and 82.2%
Cc1ncc(-c2cc3c(N)c(-c4c(C)ccc(O)c4C)cnc3[nH]2)cn1: 9.4% and 9.11%

For quick reference, copied from above (study 1):
DCAF1; 87.81 °C: 37200 a.u.
WDR5; 33.8 °C: 13100 a.u.
WDR5; 67.21 °C: 14000 a.u.
DCAF1; 48.8 °C: 14600 a.u.
DCAF1; 80.01 °C: 45200 a.u.
WDR5; 74.21 °C: 23900 a.u.
